Assay results collected from several papers.
Compare with care: the assays were run in different laboratories. Values joined by “and” are separate records of one study, mostly repeats; a detail may differ. ± marks the error that the study gave.

Molecule | test | system | conditions | scale | measurement | value
CC[C@H](C)[C@H](NC(=O)[C@H](Cc1ccccc1)NC(=O)[C@H](CC(=O)O)NC(=O)[C@H](CCCNC(=N)N)NC(=O)[C@H](C)NC(=O)[C@H](C)NC(=O)[C@H](CC(C)C)NC(=O)[C@H](CC(N)=O)NC(=O)[C@H](CC(=O)O)NC(=O)[C@H](CC(C)C)NC(=O)[C@@H](NC(=O)[C@@H](NC(=O)[C@H](CC(N)=O)NC(=O)[C@H](CCSC)NC(=O)[C@H](CCC(=O)O)NC(=O)[C@H](CC(=O)O)NC(=O)[C@H](CO)NC(=O)[C@H](Cc1ccccc1)NC(=O)[C@H](CO)NC(=O)CNC(=O)[C@H](CC(=O)O)NC(=O)CNC(=O)[C@@H](N)Cc1c[nH]cn1)[C@@H](C)O)[C@@H](C)CC)C(=O)N[C@@H](CC(N)=O)C(=O)N[C@@H](Cc1c[nH]c2ccccc12)C(=O)N[C@@H](CC(C)C)C(=O)N[C@H](C(=O)N[C@@H](CCC(N)=O)C(=O)N[C@H](C(=O)N[C@@H](CCCCN)C(=O)N[C@H](C(=O)N[C@H](C(=O)N[C@@H](CC(=O)O)C(=O)O)[C@@H](C)O)[C@@H](C)CC)[C@@H](C)O)[C@@H](C)CC | – | Japanese patients, moderate renal impairment | subcutaneous, 0.05 mg/kg | reference: normal renal function | V/F reduction | 24%
CCN(CC)CCNC(=O)c1ccc([18F])cc1 | HPLC | saline | up to six hours, room temperature, 2.5 mCi/mL | – | radiochemical purity | > 95%
C[C@]12CC[C@@H]3c4ccc(O)cc4CC[C@H]3[C@@H]1C[C@@H](O)[C@@H]2O | GC-MS | breast cancer women on NSAI, serum | vaginal, 0.03 mg daily, 0.5 h, day 28 | – | median serum concentration | 0 ng/mL
acyl ghrelin (human) | – | mouse, wild type, hippocampus | intravenous, 10 min | – | brain/serum ratio | 4.19 µL/g
O=C(CCc1ccc(F)cc1)c1ccccc1OCC(O)CN1CCN(C(c2ccccc2)c2ccccc2)CC1 (stereo not drawn) | metabolic stability | human, liver microsomes | 20 µM, pH 7.4 | – | scaled CLint | 4.8 mL/min/kg
CC1=C2C[C@H]3[C@@H](CC[C@@H]4C[C@H](NS(C)(=O)=O)CC[C@@]43C)[C@@H]2CC[C@@]2(C1)O[C@@H]1C[C@H](C)CN[C@H]1[C@H]2C | – | patients, plasma | oral, 200 mg daily, day 22, cycle 1 | – | AUC(0-24) | 15100 ng·h/mL
[2H]C([2H])([2H])Oc1cc2c(cc1OC([2H])([2H])[2H])C1CC(=O)C(CC(C)C)CN1CC2 (stereo not drawn) | item: total (α+β)-HTBZ | human, fasted | oral, 15 mg single dose | reference: tetrabenazine 25 mg fasted | geometric mean ratio AUC0-t | 114%
CCCOc1ccc([C@H]2CNC(=O)N2c2ccc3[nH]cnc3c2)cc1 | – | human, plasma | oral, 800 mg, single dose, fasted, healthy volunteers | – | Cmax | 3440 ng/mL
CC(=O)C=Cc1ccc(O)c(O)c1 | – | male C57BL/6J mice, brain | oral, 200 mg/kg, 0 to 12 h, low-fat diet | – | AUC(0-t) | 0.096 ± 0.009 nmol·min/g
CSc1cc(C)nc(SC)c1NC(=O)CN1CCN(CCSc2nc3ccccc3[nH]2)CC1 | – | mouse Crl:CD1 (ICR) female, olfactory bulb | intranasal repeated, 32.4 µg in 0.01 N HCl, 30 min | – | concentration | 15 ng/g
CNC(=O)c1c(C)oc2cc(Oc3ncnc4cc(OC)c(OC)cc34)ccc12 | – | human, moderate hepatic impairment | oral, 2 mg | – | participants with headache | 37.5%
CC(C)NC[C@@H](C(=O)N1CCN(c2ncnc3c2[C@H](C)C[C@H]3O)CC1)c1ccc(Cl)cc1 | – | human, Healthy hepatic function, plasma | oral, 100 mg single dose, NCI classification, arithmetic mean | – | t1/2 | 53.1 h
CN[C@H](CC(C)C)C(=O)N[C@H]1C(=O)N[C@@H](CC(N)=O)C(=O)N[C@H]2C(=O)N[C@H]3C(=O)N[C@H](C(=O)N[C@H](C(=O)O)c4cc(O)cc(O)c4-c4cc3ccc4O)[C@H](O)c3ccc(c(Cl)c3)Oc3cc2cc(c3O[C@@H]2O[C@H](CO)[C@@H](O)[C@H](O)[C@H]2O[C@H]2C[C@](C)(N)[C@H](O)[C@H](C)O2)Oc2ccc(cc2Cl)[C@H]1O | – | pig, Danish Landrace, plasma | intravenous, 1000 mg over 100 min, 450 min dosing interval, with: 1.0 µg/mL MIC | reference: dosing interval | time above MIC | 100%
COc1cccc(N2CCN(C3=Nc4c(F)cccc4[C@H](CC(=O)O)N3c3cc(C(F)(F)F)ccc3OC)CC2)c1 | UHPLC-MS/MS | healthy women, plasma | intravenous infusion, 120 mg single dose, 30 min infusion, HPβCD formulation | – | volume of distribution | 158 ± 44.6 L
O=C(c1ccc2ncc(-c3ccc4cnccc4c3)nc2c1)N1CCCCC1 | – | ICR/CD-1 mouse, female, liver S9 | 2 µM, pH 7.5 | – | half-life | 0.183 h
Oc1ccc(/C=C/c2cc(O)cc(O)c2)cc1 | in situ intestinal perfusion | Sprague-Dawley rat, duodenum | 25 µg/mL, 120 min, pH 7.4 | – | effective permeability | 2.7033 ± 2.82e-05 ×10⁻⁶ cm/s
CN(C)C(=O)c1cc2cnc(Nc3ccc(N4CCNCC4)cn3)nc2n1C1CCCC1 | – | human, tumour core | oral, 600 mg daily for 14 days, 4 to 8 h after last dose | – | total concentration | 21.8 nmol/g and 21.5 nmol/g
CC(=O)N[C@H](CSSC[C@H](N)C(=O)O)C(=O)N[C@H](C)C(=O)N[C@H](CCCNC(=N)N)C(=O)N[C@H](CCCNC(=N)N)C(=O)N[C@H](CCCNC(=N)N)C(=O)N[C@H](C)C(=O)N[C@H](CCCNC(=N)N)C(N)=O | in vitro hemodialysis | bovine blood | concentration not given | – | hemodialysis elimination half-life | ~0.167 h

Molecule | test | system | conditions | scale | measurement | value
C[C@H]1CO[C@@H]2Cn3cc(C(=O)NCc4ccc(F)cc4F)c(=O)c(O)c3C(=O)N12 | – | human, plasma | oral, 30 mg, 24 h, single dose, fasted, healthy volunteers | – | concentration | 1660 ng/mL
Cn1c(-c2ccc(C(N)=O)cc2F)nnc1C(C)(C)Oc1c(F)cc(Cl)cc1F | – | young Japanese adults, plasma | oral, 10 mg single dose, day 1, high-dose multiple-dose study | – | Tmax range over subjects | 1.5 to 4 h
CC(=O)N1CCC[C@H]1C(=O)N[C@@H](CCCNC(=N)N)C(=O)N[C@H](C(=O)N[C@@H](CC(=O)O)C(=O)N[C@H](C(=O)N[C@@H](CCCNC(=N)N)C(=O)N[C@H](C(=O)N[C@@H](CC(=O)O)C(=O)N[C@H](C(N)=O)C(C)C)C(C)C)C(C)C)C(C)C | rotational rheometry | 1% w/v aqueous solution | shear rate range 1-1000 s^-1 | – | viscosity | 658 ± 26.4 Pa·s
CCCC[C@H](NC(C)=O)C(=O)N[C@H]1CCC(=O)NC[C@@H](C(=O)N[C@@H](Cc2c[nH]c3ccccc23)C(N)=O)NC(=O)[C@H](CCCNC(=N)N)NC(=O)[C@@H](Cc2ccccc2)NC(=O)[C@H](Cc2c[nH]cn2)NC1=O | – | CD Sprague Dawley rat, female, plasma | subcutaneous, 5.0 mg/kg daily, day 1 | – | CL/F | 19.8 mL/min/kg
CC(C)[C@H](C(=O)Nc1ccc(C(=O)NO)cc1)c1ccccc1 | – | human, tumour centre over plasma | 40 mg | reference: pre-anaesthesia plasma | tissue/plasma ratio | 17.8
O=C(O)Cc1ccccc1Nc1c(Cl)cc(F)cc1Cl | – | human liver microsomes | 30 min, with: NADPH | – | remaining compound | 99 ± 1.2%
C=CC(=O)Nc1cc(Nc2ncc(C(=O)OC(C)C)c(-c3cn(C)c4ccccc34)n2)c(OC)cc1N(C)CCN(C)C | – | human, fasted | oral, 80 mg single dose, geometric mean | – | terminal half-life | 14.3 h
CNC(=O)c1ccc(-c2cnc3ncc(Cc4ccc5ncccc5c4)n3n2)cc1F | – | human, severe hepatic impairment (Child-Pugh C), plasma | oral, 200 mg single dose | – | half-life (mean) | 6.8 h
CCCC[C@@H]1NC(=O)[C@@H](NC(=O)[C@H](CCC(=O)O)NC(=O)CNC(=O)CN2CCN(CC(=O)O)CCN(CC(=O)O)CCN(CC(=O)O)CC2)CCCCNC(=O)C[C@@H](C(N)=O)NC(=O)[C@H](C(C)C)NC(=O)[C@@H]2CCCN2C(=O)[C@H](CCCNC(=N)N)NC(=O)CNC(=O)[C@H](Cc2c[nH]c3ccccc23)NC(=O)[C@H](CCCNC(=N)N)NC(=O)[C@@H](Cc2ccccc2)NC(=O)[C@H](Cc2c[nH]cn2)NC(=O)[C@H](CCC(=O)O)NC1=O [indium-111 labelled] | – | C57 mice, B16/F10 lung metastatic melanoma, heart | intravenous, 0.037 MBq, 24 h | – | tissue uptake | 0.03 ± 0.02 %ID/g
O=C1CN(/N=C/c2ccc(-c3ccc([N+](=O)[O-])cc3)o2)C(O)=N1 | – | Sprague-Dawley rat, male, blood | oral, 100 mg/kg, 24 h | – | ALT | 42.4 ± 5 U/L
Cc1ccc(C)c(COc2cc(NC(=O)c3ccc4c(c3)OCO4)ccc2N(C)S(C)(=O)=O)c1 | – | male Sprague-Dawley rats, plasma | intraperitoneal, 20 mg/kg | – | Vz/F | 3.33 L/kg
CNC(=O)c1cc(Oc2ccc(NC(=O)Nc3ccc(Cl)c(C(F)(F)F)c3)cc2)ccn1 | LC-MS/MS | nude mice, HepG2 subcutaneous tumour, tumour | intratumoral, 20 µL per tumour, control miRNA | – | t1/2 | 28.8 ± 6.91 h
COc1cc(/C=C/C(=O)CC(=O)/C=C/c2ccc(O)c(OC)c2)ccc1O | I-125 label | C57BL/6J mouse, hippocampus | intranasal vs intraperitoneal, 10 µg/mouse IN, 100 µg/mouse IP, 24 h | reference: intranasal over intraperitoneal | brain uptake ratio | 3.41
O=C1N=C(N2CCOCC2)CN1c1ccc(Cl)cc1 | – | beagle dog, female | oral, 30 mg/kg, tablets, fed | – | terminal half-life | 1.97 h
NC(N)=NCCC[C@H](NC(=O)[C@H](Cc1ccccc1)NC(=O)[C@@H]1CCCN1C(=O)[C@H](CO)NC(=O)[C@H](Cc1ccccc1)NC(=O)CNC(=O)[C@@H]1CCCN1C(=O)[C@@H]1CCCN1C(=O)[C@@H](N)CCCN=C(N)N)C(=O)O | LC-MS/MS | human serum, tube without gel | concentration not given, 4 h, room temperature | reference: initial concentration | concentration change | -53.9 ± 23%
COc1cccc(CN)c1O | – | mouse C57BL/6N male, brain | oral drinking water, 3 g/L/day, 1 week | – | brain concentration | 92 µM
O=C(/C=C/c1ccc(O)c(O)c1/C=C/c1ccc(O)c(O)c1)O[C@H](Cc1ccc(O)c(O)c1)C(=O)O | UPLC-MS/MS | Wistar rat, microcirculation dysfunction model, plasma | oral, 100 mg/kg Salvia miltiorrhiza stem-leaf extract FT | – | CL/F | 33 ± 15.7 mL/min/kg
O=C(Cc1cccc(OC(F)(F)F)c1)Nc1ccc(CCCCc2nnc(NC(=O)Cc3ccccn3)s2)nn1 | – | human patients, plasma | oral, 250 mg three times daily fasted, cycle 1 day 15 steady state | – | Cmin | 126 ng/mL
